# Published values pooled from the literature.
# Lines come from different studies, so protocols differ. Several values in a cell are separate wells, animals, samples, runs or records. ± marks the error that the study gave.
# MGLL: Monoglyceride lipase (MGLL, Homo sapiens, UniProt Q99685)
# Chain of UniProt Q99685 (whole entry, looked up): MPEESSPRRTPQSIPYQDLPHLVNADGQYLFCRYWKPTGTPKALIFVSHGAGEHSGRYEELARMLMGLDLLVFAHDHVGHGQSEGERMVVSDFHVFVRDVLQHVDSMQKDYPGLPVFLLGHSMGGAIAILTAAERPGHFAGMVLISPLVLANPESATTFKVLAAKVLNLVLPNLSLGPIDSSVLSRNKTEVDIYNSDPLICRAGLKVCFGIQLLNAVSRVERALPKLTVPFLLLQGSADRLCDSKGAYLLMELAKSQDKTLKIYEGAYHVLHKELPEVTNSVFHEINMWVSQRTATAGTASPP
# Tpo: Thyroid peroxidase (Tpo, Rattus norvegicus, UniProt P14650)
# Chain of UniProt P14650 (whole entry, looked up): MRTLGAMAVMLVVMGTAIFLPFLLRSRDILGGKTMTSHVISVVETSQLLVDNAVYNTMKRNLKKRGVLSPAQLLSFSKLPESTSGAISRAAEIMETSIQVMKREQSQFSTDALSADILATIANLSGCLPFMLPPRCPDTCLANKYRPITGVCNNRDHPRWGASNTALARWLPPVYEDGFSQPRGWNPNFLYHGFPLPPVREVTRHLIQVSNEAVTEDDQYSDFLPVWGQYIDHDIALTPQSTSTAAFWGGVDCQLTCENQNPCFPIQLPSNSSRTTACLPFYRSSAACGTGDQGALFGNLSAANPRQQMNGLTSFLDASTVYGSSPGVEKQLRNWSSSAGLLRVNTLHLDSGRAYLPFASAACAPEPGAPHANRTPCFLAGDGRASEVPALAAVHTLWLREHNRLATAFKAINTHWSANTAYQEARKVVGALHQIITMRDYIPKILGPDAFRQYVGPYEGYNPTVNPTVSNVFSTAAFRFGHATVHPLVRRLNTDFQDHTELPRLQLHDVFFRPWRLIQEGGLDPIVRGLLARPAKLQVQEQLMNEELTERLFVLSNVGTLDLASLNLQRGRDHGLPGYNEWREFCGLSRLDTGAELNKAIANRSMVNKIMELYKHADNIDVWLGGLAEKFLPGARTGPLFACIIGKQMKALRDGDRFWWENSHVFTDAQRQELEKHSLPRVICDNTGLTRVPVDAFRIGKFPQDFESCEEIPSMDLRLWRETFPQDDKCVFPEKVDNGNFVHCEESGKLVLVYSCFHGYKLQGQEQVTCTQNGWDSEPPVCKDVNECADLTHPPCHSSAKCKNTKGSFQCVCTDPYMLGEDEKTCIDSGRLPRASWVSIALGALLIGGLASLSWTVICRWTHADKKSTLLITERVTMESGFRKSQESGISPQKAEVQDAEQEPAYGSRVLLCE
# CACNA1I: Voltage-dependent T-type calcium channel subunit alpha-1I (CACNA1I, Homo sapiens, UniProt Q9P0X4)
# Chain of UniProt Q9P0X4 (whole entry, looked up): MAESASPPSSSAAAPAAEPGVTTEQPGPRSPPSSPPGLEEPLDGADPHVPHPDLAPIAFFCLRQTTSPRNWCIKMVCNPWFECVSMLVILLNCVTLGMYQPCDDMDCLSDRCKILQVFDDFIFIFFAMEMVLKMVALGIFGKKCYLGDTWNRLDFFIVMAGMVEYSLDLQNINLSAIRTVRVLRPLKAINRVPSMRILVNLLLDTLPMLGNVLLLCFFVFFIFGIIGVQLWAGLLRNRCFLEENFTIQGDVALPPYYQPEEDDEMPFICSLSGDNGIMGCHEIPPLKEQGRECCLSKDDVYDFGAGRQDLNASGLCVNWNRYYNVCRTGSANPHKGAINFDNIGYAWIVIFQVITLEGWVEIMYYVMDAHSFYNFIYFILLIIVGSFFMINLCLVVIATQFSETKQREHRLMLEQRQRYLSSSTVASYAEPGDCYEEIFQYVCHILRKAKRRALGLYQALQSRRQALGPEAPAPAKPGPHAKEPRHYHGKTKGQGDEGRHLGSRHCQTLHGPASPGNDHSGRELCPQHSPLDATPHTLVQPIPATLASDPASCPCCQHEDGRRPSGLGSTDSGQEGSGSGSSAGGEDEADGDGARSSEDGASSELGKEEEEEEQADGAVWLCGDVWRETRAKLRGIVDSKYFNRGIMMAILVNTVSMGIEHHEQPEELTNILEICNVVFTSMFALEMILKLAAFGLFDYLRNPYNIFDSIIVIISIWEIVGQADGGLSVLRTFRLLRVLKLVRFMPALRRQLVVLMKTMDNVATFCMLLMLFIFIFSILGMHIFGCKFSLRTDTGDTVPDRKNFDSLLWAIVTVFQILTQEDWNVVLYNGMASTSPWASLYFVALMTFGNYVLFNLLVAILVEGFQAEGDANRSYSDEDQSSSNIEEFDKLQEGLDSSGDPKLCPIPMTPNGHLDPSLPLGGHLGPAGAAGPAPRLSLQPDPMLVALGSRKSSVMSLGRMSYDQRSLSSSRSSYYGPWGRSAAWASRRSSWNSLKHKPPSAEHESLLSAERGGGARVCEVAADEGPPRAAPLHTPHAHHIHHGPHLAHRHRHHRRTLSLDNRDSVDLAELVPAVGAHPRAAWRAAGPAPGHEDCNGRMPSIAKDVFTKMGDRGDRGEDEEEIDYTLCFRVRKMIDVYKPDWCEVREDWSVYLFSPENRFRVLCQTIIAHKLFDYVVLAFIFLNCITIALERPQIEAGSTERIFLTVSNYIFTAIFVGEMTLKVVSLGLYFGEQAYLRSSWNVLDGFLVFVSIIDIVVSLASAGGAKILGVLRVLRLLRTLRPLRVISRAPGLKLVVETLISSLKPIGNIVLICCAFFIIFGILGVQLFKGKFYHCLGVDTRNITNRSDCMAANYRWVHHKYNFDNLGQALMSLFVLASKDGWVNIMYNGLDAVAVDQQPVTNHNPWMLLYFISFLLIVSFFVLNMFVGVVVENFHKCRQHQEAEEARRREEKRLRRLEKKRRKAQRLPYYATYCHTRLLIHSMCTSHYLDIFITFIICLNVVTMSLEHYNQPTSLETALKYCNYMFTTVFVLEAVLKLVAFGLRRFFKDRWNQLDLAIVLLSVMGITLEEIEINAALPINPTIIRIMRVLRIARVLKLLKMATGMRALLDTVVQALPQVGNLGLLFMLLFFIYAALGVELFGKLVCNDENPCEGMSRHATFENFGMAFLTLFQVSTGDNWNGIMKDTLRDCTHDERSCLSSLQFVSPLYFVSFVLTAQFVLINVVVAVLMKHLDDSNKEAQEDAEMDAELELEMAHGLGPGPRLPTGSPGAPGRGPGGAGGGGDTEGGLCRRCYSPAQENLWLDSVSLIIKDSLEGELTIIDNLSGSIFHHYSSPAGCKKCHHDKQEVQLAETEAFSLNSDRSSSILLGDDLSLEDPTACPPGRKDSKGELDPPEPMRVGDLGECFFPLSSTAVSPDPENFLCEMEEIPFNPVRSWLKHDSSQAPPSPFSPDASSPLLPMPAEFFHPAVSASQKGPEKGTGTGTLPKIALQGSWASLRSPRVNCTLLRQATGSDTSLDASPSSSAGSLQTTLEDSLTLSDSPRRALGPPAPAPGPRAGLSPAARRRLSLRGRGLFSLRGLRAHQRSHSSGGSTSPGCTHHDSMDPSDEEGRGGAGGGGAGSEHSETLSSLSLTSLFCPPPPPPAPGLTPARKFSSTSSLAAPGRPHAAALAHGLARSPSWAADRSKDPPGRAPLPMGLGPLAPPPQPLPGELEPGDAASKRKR
# EPHX2: Bifunctional epoxide hydrolase 2 (EPHX2, Homo sapiens, UniProt P34913)
# Chain of UniProt Q86UW1 (whole entry, looked up): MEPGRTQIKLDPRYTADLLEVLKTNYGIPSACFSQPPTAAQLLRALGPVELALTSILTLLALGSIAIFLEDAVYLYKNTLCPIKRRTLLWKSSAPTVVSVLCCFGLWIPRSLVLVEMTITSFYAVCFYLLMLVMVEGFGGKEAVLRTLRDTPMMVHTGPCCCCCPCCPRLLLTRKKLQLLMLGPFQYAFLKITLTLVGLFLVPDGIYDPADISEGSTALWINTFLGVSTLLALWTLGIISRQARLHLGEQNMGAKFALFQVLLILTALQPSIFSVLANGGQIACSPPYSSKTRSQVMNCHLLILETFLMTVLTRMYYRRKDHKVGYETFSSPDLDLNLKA
# Chain of UniProt P34913 (whole entry, looked up): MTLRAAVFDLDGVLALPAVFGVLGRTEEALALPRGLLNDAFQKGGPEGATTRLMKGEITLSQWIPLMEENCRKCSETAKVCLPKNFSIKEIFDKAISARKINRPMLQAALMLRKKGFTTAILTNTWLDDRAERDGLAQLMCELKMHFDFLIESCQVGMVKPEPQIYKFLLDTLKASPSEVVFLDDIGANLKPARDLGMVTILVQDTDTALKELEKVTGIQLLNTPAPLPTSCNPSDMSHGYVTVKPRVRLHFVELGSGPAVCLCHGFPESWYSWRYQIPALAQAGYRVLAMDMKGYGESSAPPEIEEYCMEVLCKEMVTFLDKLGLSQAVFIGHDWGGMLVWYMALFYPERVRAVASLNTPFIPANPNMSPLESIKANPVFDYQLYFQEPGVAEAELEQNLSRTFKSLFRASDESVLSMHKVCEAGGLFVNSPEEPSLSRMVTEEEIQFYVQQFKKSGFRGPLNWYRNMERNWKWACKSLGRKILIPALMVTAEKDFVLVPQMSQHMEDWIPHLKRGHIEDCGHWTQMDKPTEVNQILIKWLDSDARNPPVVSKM
# Chain of UniProt Q9HBW0 (whole entry, looked up): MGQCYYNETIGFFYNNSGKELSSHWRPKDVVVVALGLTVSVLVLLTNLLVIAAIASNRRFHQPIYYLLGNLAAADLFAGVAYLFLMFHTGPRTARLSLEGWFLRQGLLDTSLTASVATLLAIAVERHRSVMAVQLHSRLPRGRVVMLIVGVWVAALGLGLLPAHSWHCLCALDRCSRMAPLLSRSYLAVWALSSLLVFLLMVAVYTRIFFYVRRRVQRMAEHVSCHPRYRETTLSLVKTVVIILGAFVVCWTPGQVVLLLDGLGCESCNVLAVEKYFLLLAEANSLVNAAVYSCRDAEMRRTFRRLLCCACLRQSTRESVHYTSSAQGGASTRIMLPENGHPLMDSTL
# Chain of UniProt P30872 (whole entry, looked up): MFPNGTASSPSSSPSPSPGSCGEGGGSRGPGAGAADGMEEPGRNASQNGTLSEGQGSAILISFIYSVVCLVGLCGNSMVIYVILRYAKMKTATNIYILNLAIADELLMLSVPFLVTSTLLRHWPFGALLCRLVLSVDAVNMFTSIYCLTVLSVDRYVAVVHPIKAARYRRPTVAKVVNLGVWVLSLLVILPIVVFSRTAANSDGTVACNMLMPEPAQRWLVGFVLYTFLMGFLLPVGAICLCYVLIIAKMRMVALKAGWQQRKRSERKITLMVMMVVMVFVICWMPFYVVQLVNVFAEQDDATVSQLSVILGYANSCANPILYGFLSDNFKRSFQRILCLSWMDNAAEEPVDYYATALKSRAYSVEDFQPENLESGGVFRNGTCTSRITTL
SMILES,target,test,system,conditions,IC50
COc1ccccc1-c1cn(CCN2CCOCC2)c2ncnc(N)c12,"CDPK1 (Plasmodium falciparum, UniProt P62344)","enzyme activity, inhibitor",,,> 2000 nM
C[C@@H](CC(=O)NCc1cccc2ccccc12)NC(=O)C[C@H](CC(=O)NC(C)(C)C)NC(=O)CCc1ccccc1,"Proteasome component C5/PSMB5 (Homo sapiens, UniProt P20618+P28074)","chymotrypsin-like activity, inhibitor",,together with: suc-LLVY-AMC,> 100000 nM
Cc1c(C)c2c(c(C)c1OS(=O)(=O)O)CCC(C)(COc1ccc(CC3SC(=O)NC3=O)cc1)O2 (centres unmarked),"Organic solute transporter subunit alpha, with OSTβ (SLC51A, Homo sapiens, UniProt Q86UW1)","DHEAS uptake, inhibitor",Flp-In 293 overexpressing OSTα/β,"30 s, together with: DHEAS 4 µM",191000 nM and < 200000 nM
O=C(OC(C(F)(F)F)C(F)(F)F)N1CCC(CCn2nnc3ccccc32)CC1,MGLL,"enzyme activity, inhibitor",,,190 nM
CC(C)C[C@H](NC(=O)[C@H](Cc1ccc2ccccc2c1)NC(=O)[C@H](CCC(=O)O)NC(=O)c1cnccn1)C(=O)NC1CC1c1ccccc1 (some centres unmarked),"APC (Homo sapiens, UniProt P25054)","ligand displacement, FP",,,44600 nM
Oc1ccc(/C=C/c2cc(O)cc(O)c2)cc1,Tpo,"tyrosine iodination, LC-MS/MS",rat thyroid microsomes,"together with: KI 300 µM, H2O2 40 µM",640 nM
CN(C)c1cc2c(Nc3ccc4c(cnn4Cc4ccccc4)c3)ncnc2cn1,"SRC (Homo sapiens, UniProt P12931)","enzyme activity, inhibitor, ADP detection",,,> 10000 nM
O=P(O)(O)Oc1cc(OP(=O)(O)O)cc(-c2c(OP(=O)(O)O)cc(OP(=O)(O)O)cc2OP(=O)(O)O)c1,"Inositol polyphosphate-5-phosphatase A (Homo sapiens, UniProt Q14642)","enzyme activity, inhibitor",,"together with: Ins(1,4,5)P3 1.0 µM",1850 nM
Nc1ncnc2c1ncn2[C@@H]1O[C@H](COP(=O)(O)OP(=O)(O)C(Cl)(Cl)P(=O)(O)O)[C@@H](O)[C@H]1O,"PRKCE (Homo sapiens, UniProt Q02156)","enzyme activity, inhibitor, HotSpot kinase",,together with: ATP 1 µM,90 nM
Cc1ncc([N+](=O)[O-])n1CC(C)O (centres unmarked),"Cytochrome P450 2C9 (CYP2C9, Homo sapiens, UniProt P11712)","enzyme activity, inhibitor",human liver microsomes,"30 min, together with: diclofenac",> 500000 nM
CC(C)C[C@@H]1NC(=O)[C@H]([C@@H](C)O)NC(=O)[C@H](Cc2ccccc2)NC(=O)CNC(=O)[C@H](Cc2c[nH]c3ccccc23)NC(=O)[C@H](Cc2c[nH]cn2)NC(=O)[C@H]([C@@H](C)O)NC(=O)[C@H]([C@@H](C)O)NC(=O)[C@H](C)NC(=O)CCNC1=O,"MMP2 (Homo sapiens, UniProt P08253)","enzyme activity, inhibitor",,,84000 nM
CC(C)(C)NC(=O)CN1CCC(CNC(=O)c2cc(F)cc(Cl)c2)CC1,CACNA1I,"inhibitor, FLIPR calcium","HEK293 with GCaMP6s-CAAX, Kir2.3",together with: KCl at EC90,110 nM
CC(C)NCc1ccc(C[C@@H]2NC(=O)[C@H](N(C)C(=O)c3ccc4ccccc4c3)NC(=O)[C@H](Cc3ccccc3)NC(=O)[C@@H](N)CSSC[C@@H](C(=O)N[C@H](C(N)=O)[C@@H](C)O)NC(=O)[C@H](Cc3ccccc3)NC2=O)cc1,"SSTR1 (Homo sapiens, UniProt P30872)","ligand displacement, radioligand",,cell membranes,42 nM
CC(=O)Oc1cc(-c2coc3cc(OC(C)=O)c(OC(C)=O)c(OC(C)=O)c3c2=O)cc(OC(C)=O)c1OC(C)=O,firefly luciferase,"ADP-Glo ADP processing, luminescence counter-screen","cell-free, no kinase","up to 77 µM, together with: ADP 1.25 µM, ATP 11.25 µM",no inhibition
O=C(Nc1cccc(-c2nnc(C3CCCCC3)o2)c1)c1cc(F)cc(F)c1,α-amylase,"enzyme activity, inhibitor",,,4720 nM
CCCN1C[C@H](CSC)C[C@@H]2c3cccc4[nH]cc(c34)C[C@H]21,human MBNL1,"CUG repeat RNA binding, inhibitor, HTRF",,together with: biotin-(CUG)12 RNA,15800 nM
Nc1ccn([C@@H]2S[C@H](COP(=O)(O)OP(=O)(O)OP(=O)(O)O)[C@@H](O)[C@@H]2F)c(=O)n1,"POLA1 (Bos taurus, UniProt A0AAA9THK8)","enzyme activity, inhibitor, radiometric",,,1900 nM
CC12CC3CC(C)(C1)CC(Nc1c(Nc4ccc(CN5CCC[C@H](C(=O)NCCCCCCC(=O)NO)C5)cc4F)c(=O)c1=O)(C3)C2,EPHX2,"enzyme activity, inhibitor, fluorescence",,,72 nM
O=c1c(O)c(-c2ccc(O)cc2)oc2cc(O)cc(O)c12,Tpo,"enzyme activity, inhibitor, LC-MS/MS, refers to: monoiodotyrosine",rat thyroid microsomes,together with: L-tyrosine substrate,2740 nM and 5450 nM
O=C(NCCCCCCCn1ccc2ccc(F)cc21)OC(C(F)(F)F)C(F)(F)F,MGLL,"enzyme activity, inhibitor",,,8300 nM
C[C@]12CC[C@@H]3c4ccc(O)cc4CC[C@H]3[C@@H]1[C@H](OCCC(N)=O)CC2=O,"HSD17B1 (Homo sapiens, UniProt P14061)","enzyme activity, inhibitor, radiometric",,,2200 to 5100 nM
CCCS(=O)(=O)Nc1cc(-c2cc(-c3ccccc3S(C)(=O)=O)cnc2N)ccc1OC,"RIPK2 (Homo sapiens, UniProt O43353)","kinase activity, inhibitor, ADP-Glo",,tested up to 10 µM,> 10000 nM
NC(=O)c1nnn(Cc2cc(Cl)c(C(=O)c3ccc(Cl)cc3)c(Cl)c2)c1N,CACNA1I,"inhibitor, FLIPR calcium","HEK293 with GCaMP6s-CAAX, Kir2.3",together with: KCl at EC90,6800 nM
COc1cc(CCC(=O)CC(=O)CCc2ccc(O)c(OC)c2)ccc1O,Tpo,"tyrosine iodination, LC-MS/MS",rat thyroid microsomes,"together with: KI 300 µM, H2O2 40 µM",1550 nM
O=C(O)/C=C/c1ccc(O)c(O)c1,firefly luciferase,"ADP-Glo ADP processing, luminescence counter-screen","cell-free, no kinase","up to 77 µM, together with: ADP 1.25 µM, ATP 11.25 µM",no inhibition
CCCCC[C@H](CC(=O)NO)C(=O)N[C@H](C(=O)N1CCC[C@H]1CO)C(C)C,"MEP1A (Homo sapiens, UniProt Q16819)","enzyme activity, inhibitor, FRET",,,4.4 ± 0.2 nM
C[C@@H]1O[C@@H](Oc2c(-c3ccc(O)cc3)oc3cc(O)cc(O)c3c2=O)[C@H](O[C@@H]2OC[C@@H](O)[C@H](O)[C@H]2O)[C@H](O)[C@H]1O,"iunh (Leishmania donovani, UniProt Q8WQX2)","enzyme activity, inhibitor, absorbance",,,74700 nM and 74600 nM
Cc1ccc(Oc2cccc(CC(=O)N3CCNc4nc(C(F)(F)F)ccc4[C@H]3CC(=O)O)c2)cn1,"Neuromedin-B receptor (Nmbr, Mus musculus, UniProt O54799)",radioligand binding,BALB cells expressing mouse NMBR,"60 min, 21 °C, together with: 50 pM radioligand",> 3000 nM
Cc1cc(Cl)ccc1OC(C)C(=O)Nc1cc(Cl)ccc1C(=O)O (centres unmarked),"TRPM4 (Homo sapiens, UniProt Q8TD43)","ion flux, inhibitor, fluorescence",,,~1000 nM
COc1cc(CCC(O)CC(O)CCc2ccc(O)c(OC)c2)ccc1O (centres unmarked),"HSD3B2 (Homo sapiens, UniProt P26439)","enzyme activity, inhibitor",KGN cell homogenate,"lower bound from 100 µM screen, together with: pregnenolone",≥ 100000 nM
COc1ccc(C(/C=C/CN2CCC[C@@H]2[C@H](O)C(=O)O)(c2ccc(OC)cc2)c2ccc(OC)cc2)cc1,"SLC6A11 (Homo sapiens, UniProt P48066)","GABA uptake, inhibitor",HEK-293T,15 min preincubation,4400 nM
C[C@]12C[C@@H]3C[C@](C)(C1)C[C@@](NC(=O)Nc1ccc(C(=O)N4CCC[C@H](C(=O)NCCCCCCC(=O)NO)C4)cc1)(C3)C2,EPHX2,"enzyme activity, inhibitor, fluorescence",,,0.3 nM
OC1CCCc2ccc(OCCOc3ccccc3)cc21 (centres unmarked),"MAOB (Homo sapiens, UniProt P27338)","enzyme activity, inhibitor, fluorescence",,,189 nM
C#CCOCCC(=O)NC(Cc1ccccc1)C(=O)NC(Cc1ccccc1)C(=O)NC(C=CC(=O)OCC)CC1CCNC1=O (centres unmarked),"Replicase polyprotein 1ab, main protease (rep, Severe acute respiratory syndrome coronavirus 2, UniProt P0DTD1)","enzyme activity, inhibitor",,,800 nM
CCOC(=O)/C(O)=C/C(=O)c1cn(Cc2ccc(F)cc2)c2c(F)cccc2c1=O,"Gag-Pol polyprotein, integrase (gag-pol, Human immunodeficiency virus 1, UniProt P12497)","3'-processing, inhibitor, gel-based",,together with: Mg2+,> 333000 nM
O=C(Nc1ccc(C(=O)Nc2ccc(C(=O)Nc3ccc(S(=O)(=O)O)c4cc(S(=O)(=O)O)cc(S(=O)(=O)O)c34)cc2)cc1)Nc1ccc(C(=O)Nc2ccc(C(=O)Nc3ccc(S(=O)(=O)O)c4cc(S(=O)(=O)O)cc(S(=O)(=O)O)c34)cc2)cc1,"UBASH3B (Homo sapiens, UniProt Q8TF42)","enzyme activity, inhibitor, fluorescence",,,2400 nM
O=C(Nc1cc(F)c(F)c(F)c1)c1cc(S(=O)(=O)N2CCOCC2)c(Cl)cc1Cl,"LPAR2 (Homo sapiens, UniProt Q9HBW0)","Ca2+ mobilization, antagonist",MEF,together with: LPA at EC50,> 100000 nM
O=c1c2ccccc2[se]n1-c1ccccc1,"Neutrophil cytosol factor 1, tandem SH3 domain (NCF1, Homo sapiens, UniProt P14598)","binding, fluorescence polarization",,together with: rho PRD peptide,300 nM
O=C(Nc1cccc(-c2nnc(C3CCCCC3)o2)c1)c1ccc(Cl)cc1,α-amylase,"enzyme activity, inhibitor",,,6220 nM
CC[C@H](C)[C@H](NC(=O)[C@H](Cc1ccc(O)cc1)NC(=O)[C@@H](NC(=O)[C@H](CCCNC(=N)N)NC(=O)[C@@H](N)CC(=O)O)C(C)C)C(=O)N[C@@H](Cc1c[nH]cn1)C(=O)N1CCC[C@H]1C(=O)N[C@@H](Cc1ccccc1)C(=O)N[C@@H](Cc1c[nH]cn1)C(=O)O,"Neurolysin, mitochondrial (Rattus norvegicus, UniProt P42676)",radioligand binding,"rat, brain membranes",,7000 nM
CC(C)C[C@H](NC(=O)[C@@H](NC(=O)N[C@H](C(=O)OC(C)(C)C)C(C)C)C(C)C)C(=O)N[C@@H](CC(C)C)C(=O)[C@@]1(C)CO1,rabbit 26S proteasome β1,"caspase-like activity, inhibitor, fluorogenic substrate",purified proteasome,"30 min, 37 °C, together with: fluorogenic caspase-like substrate",> 300 nM
